Experimental data of several laboratories.
Each line is one published result; not all experiments were run side by side.
Sample: plasma

COc1cccc(-c2ccc(NC(=O)C3=C(C(=O)O)CCC3)c(F)c2)c1  Tmax (male human; oral, 10 mg, single dose, fed, healthy volunteers): 7 h
O=C(c1nc2n(n1)[C@H](c1ccccc1)C[C@@H]2F)C1CC1  Tmax (human; oral, 25 mg, single dose, fasted, healthy volunteers): 1.94 h
CCCC[C@H](NC(C)=O)C(=O)N[C@H]1CCC(=O)NC[C@@H](C(=O)N[C@@H](Cc2c[nH]c3ccccc23)C(N)=O)NC(=O)[C@H](CCCNC(=N)N)NC(=O)[C@@H](Cc2ccccc2)NC(=O)[C@H](Cc2c[nH]cn2)NC1=O  Tmax (human; subcutaneous, 3 mg, multiple doses, once daily): 0.5 h
CN(C)C/C=C/C(=O)Nc1cc2c(Nc3ccc(F)c(Cl)c3)ncnc2cc1O[C@H]1CCOC1  Tmax (human; oral, 10 mg, multiple doses, once daily, steady state, patients): 3 h
Nc1cc(F)ccc1NC(=O)c1ccc(CNC(=O)/C=C/c2cccnc2)cc1  Tmax (human; oral, 30 mg, patients): 3.98 h
Nc1ncc(-c2cnn(CCO)c2)c2scc(-c3ccc(NC(=O)Nc4cccc(F)c4)cc3)c12  Tmax (human; oral, 640 mg, patients): 2.7 h
CS(=O)(=O)n1cc2c(n1)CN([C@H]1CO[C@H](c3cc(F)ccc3F)[C@@H](N)C1)C2  Tmax (male human; oral, 100 mg, multiple doses, healthy volunteers): 1 h
C[C@@H]1CCC[C@H](n2cnc(-c3cc(Cl)ccc3-n3cc(Cl)nn3)cc2=O)c2cc(ccn2)-c2c(cnn2C(F)F)NC1=O  Tmax (human; oral, 200 mg, single dose, fasted, healthy volunteers): 3 h
CCCCCN1C[C@H](O)[C@@H](O)[C@H](O)[C@@H]1CO  Tmax (male human; oral, 10 mg, single dose, fasted, healthy volunteers): 1 h
CCCOc1ccc([C@H]2CNC(=O)N2c2ccc3[nH]cnc3c2)cc1  Tmax (human; oral, 100 mg, single dose, fasted): 0.5 h
CCOc1ccc(Cc2cc([C@]34OC[C@](CO)(O3)[C@@H](O)[C@H](O)[C@H]4O)ccc2Cl)cc1  Tmax (human; oral, 15 mg, single dose): 1 h
N#Cc1ccc(-c2cnc3ccc(-c4ccc(C(=O)N5CCOCC5)cc4)cn23)cc1  Tmax (human; oral, 10 mg, single dose, fed, healthy volunteers): 4.62 h
C[C@@H](N)c1cc(Cl)ccc1Cn1c(=S)[nH]c(=O)c2[nH]ccc21  Tmax (human; oral, 10 mg, multiple doses, once daily, healthy volunteers): 1.5 h
CN(C)Cc1c(C(=O)NCCOc2ccc(C(=O)NO)cc2)oc2ccccc12  Tmax (human; oral, 40 mg, single dose, patients): 0.5 h
CC(=O)N[C@H]1CC[C@H](NC(=O)CN2CCN(c3nncc(-c4ccc(C)cc4)n3)CC2)CC1  Tmax (human; oral, 400 mg, single dose, fasted, healthy volunteers): 1.3 h
Nc1ccc(-c2nc([C@H]3CCc4cc(-c5cc(Cl)ccc5-n5cnnn5)cc(=O)n43)c(F)[nH]2)c(F)n1  Tmax (human; oral, 300 mg, single dose, fasted, healthy volunteers): 4 h
CS(=O)(=O)n1cc2c(n1)CN([C@H]1CO[C@H](c3cc(F)ccc3F)[C@@H](N)C1)C2  Tmax (male human; oral, 25 mg, single dose, fasted): 1 h
O=C(O)C[C@H](O)C[C@H](O)/C=C/c1c(C2CC2)nc2ccccc2c1-c1ccc(F)cc1  Tmax (male human; oral, 2 mg, multiple doses, once daily): 0.6 h
CNc1nc(Nc2ccc(-n3cnc(C)n3)c(OC)c2)nc2c1CC[C@H]2c1ccc(F)cc1  Tmax (human; oral, 900 mg, healthy volunteers): 4.5 h
CNCc1ccc(-c2[nH]c3cc(F)cc4c3c2CCNC4=O)cc1  Tmax (human; oral, 160 mg, multiple doses, once daily, steady state, patients): 3.75 h
C=C(C)[C@@H]1CC[C@]2(NCCN3CCS(=O)(=O)CC3)CC[C@]3(C)[C@H](CC[C@@H]4[C@@]5(C)CC=C(C6=CC[C@@](CF)(C(=O)O)CC6)C(C)(C)[C@@H]5CC[C@]43C)[C@@H]12  Tmax (human; oral, 80 mg, multiple doses, once daily, patients): 4.58 h
C[C@H](N)C(=O)N1C[C@H](CCCB(O)O)[C@](N)(C(=O)O)C1  Tmax (human; oral, 75 mg twice daily, multiple doses, patients): 4.1 h
CC(C)(Sc1ccncc1-c1ccc(C#N)c2ccccc12)C(=O)O  Tmax (male human; oral, 5 mg, single dose, fasted): 1.25 h
O=C(c1cccnc1-c1ccncc1)N1CCC(O)(Cc2ccccc2)CC1  Tmax (human; oral, 100 mg, multiple doses, once daily, healthy volunteers): 0.42 h
Cn1ncnc1[C@H]1c2n[nH]c(=O)c3cc(F)cc(c23)N[C@@H]1c1ccc(F)cc1  Tmax (human; oral, 0.5 mg, single dose): 1 h
O=C(COc1ccc(Cl)cc1)NC12CC(c3nnc([C@H]4C[C@@H](OC(F)(F)F)C4)o3)(C1)C2  Tmax (human; oral, fasted, healthy volunteers): 14 to 24 h
CNC(=O)c1ccc(-c2cnc3ncc(Cc4ccc5ncccc5c4)n3n2)cc1F  Tmax (human; oral, 200 mg twice daily, multiple doses, steady state, patients): 1.92 h
O=C(O)COC[C@H]1CC[C@H](COC(=O)N(c2ccccc2)c2ccc(Cl)cc2)CC1  Tmax (human; oral, 40 µg, multiple doses, twice daily, steady state): 1 h
C#C[C@]1(CO)O[C@@H](n2cnc3c(N)nc(F)nc32)C[C@@H]1O  Tmax (human; oral, 15 mg, single dose, fasted): 0.5 h

A few entries again:
CCCC[C@H](NC(C)=O)C(=O)N[C@H]1CCC(=O)NC[C@@H](C(=O)N[C@@H](Cc2c[nH]c3ccccc23)C(N)=O)NC(=O)[C@H](CCCNC(=N)N)NC(=O)[C@@H](Cc2ccccc2)NC(=O)[C@H](Cc2c[nH]cn2)NC1=O  Tmax (human; subcutaneous, 3 mg, multiple doses, once daily): 0.5 h
Cn1ncnc1[C@H]1c2n[nH]c(=O)c3cc(F)cc(c23)N[C@@H]1c1ccc(F)cc1  Tmax (human; oral, 0.5 mg, single dose): 1 h
CCOc1ccc(Cc2cc([C@]34OC[C@](CO)(O3)[C@@H](O)[C@H](O)[C@H]4O)ccc2Cl)cc1  Tmax (human; oral, 15 mg, single dose): 1 h
